Results collected from several papers.
Compare with care: the assays were run in different laboratories. Values joined by “and” are separate records of one study, mostly repeats; a detail may differ. Numbers after ± are the reported error.

SMILES	target or system	assay	system	conditions	how to read	measurement	result
CC[C@H](C)[C@H](NC(=O)[C@H](Cc1c[nH]cn1)NC(=O)[C@@H]1CSSC[C@H](NC(=O)[C@H](Cc2c[nH]cn2)NC(=O)[C@H](Cc2ccccc2)NC(=O)CCC(C(=O)O)N2CCN(CC(=O)O)CCN(CC(=O)O)CC2)C(=O)N2C[C@H](O)C[C@H]2C(=O)N[C@@H](Cc2ccc(O)c(Cl)c2)C(=O)N[C@@H](CC(=O)O)C(=O)N[C@@H](CC(C)C)C(=O)N1)C(=O)N[C@@H](CC(C)C)C(=O)NCc1ccc(CNC(=O)CCC(C(=O)O)N2CCN(CC(=O)O)CCN(CC(=O)O)CC2)cc1 (some centres unmarked) [gallium-68 labelled]		PET/SPECT imaging	rat, carotid crush thrombosis model	30 to 90 min post-injection	relative to: thrombus over contralateral carotid	thrombus to contralateral ratio	> 4 fold
COc1cc([C@@H]2c3cc4c(cc3[C@@H](OCc3cc(-c5cc(C#N)cc(C#N)c5)no3)[C@H]3COC(=O)C23)OCO4)cc(OC)c1OC (some centres unmarked)		tubulin polymerisation, inhibitor				IC50	1.43 µM
CCOP(=O)(CC(=O)Nc1ccc(S(=O)(=O)N(CC(N)=O)c2ccc(N(CC(N)=O)S(=O)(=O)c3ccc(OC)cc3)c3ccccc23)cc1)OCC		Western blot	APP/PS1 mice, hippocampus and frontal cortex	40 mg/kg		nuclear Nrf2 protein level	increased
C=C1C(=O)OC2C1CCC(Cn1cc(-c3cc(C(F)(F)F)cc(C(F)(F)F)c3)nn1)=C1CCC(C)(O)C12 (centres unmarked)			blast crisis CML mouse, bone marrow	dose not given		leukaemic stem cells	no effect
COc1cc(CCC(C)=O)ccc1O	mAb 5-D8	antibody binding, indirect competitive ELISA		with: coating antigen hapten 4-OVA		IC50	> 4 µg/mL
C=C(c1cc(F)c(C(=O)O)c(F)c1)c1cc2c(cc1C)C(C)(C)CCC2(C)C		RNA sequencing, measured: Emr4 mRNA	rat, brain	dose not given, 24 h, single dose	relative to: vehicle	log2 fold change	-0.1
C=CC(=O)N1C[C@H](C)N(c2nc(OC[C@@]34CCCN3C[C@H](F)C4)nc3c(F)c(-c4ccc(F)c5sc(N)c(C#N)c45)c(C(F)(F)F)cc23)C[C@H]1C			NCI-H358 xenograft, mouse	oral, 1 mg/kg once daily, 28 days		tumour volume reduction	71%
Cc1ncc([N+](=O)[O-])n1CCOCc1nnc(SCC(=O)c2ccc(Br)cc2)o1				50 µg/mL, 45 min		DPPH scavenging	39.14 ± 0.22%
CCCCC/C=C/C(=O)CCc1ccc(O)c(OC)c1	mouse mAb 1-D6	antibody binding, indirect competitive ELISA				IC50	0.658 µg/mL
CC(C)C[C@@H]1NC(=O)[C@H](CS)NC(=O)[C@H](CCCCN)NC(=O)[C@H](CC(=O)O)N(C(=O)[C@@H](N)Cc2c[nH]c3ccccc23)CCCNC(=O)NCCCCN([C@@H](C)C(N)=O)C1=O			DBA/1 mouse collagen-induced arthritis	intraperitoneal, 360 pg/g weekly	relative to: PBS	arthritis incidence	no effect
[64Cu+2].c1ccc(CNCc2ccc(CN3CCCN4CCNCCCN(CC4)CC3)cc2)nc1	CXCR4		NOD/SCID mouse, U87 and U87-stb-CXCR4 xenografts, lungs	iv, 480 min, ex vivo		tissue uptake	6.1 ± 1.29 %ID/g
CC[C@H]1[C@@H](O)[C@@H]2[C@H](CC[C@]3(C)[C@@H]([C@H](C)CCOS(=O)(=O)[O-])CC[C@@H]23)[C@@]2(C)CC[C@@H](O)C[C@@H]12.[Na+]			ob/ob NASH mouse	3.0 mg/kg, 16 weeks, improvement > 1 points	relative to: animals	fibrosis stage improvement	0%
CN1CCC[C@]1(C)/C=C/S(=O)(=O)NC(=O)Nc1c2c(cc3c1CCC3)CCC2		IL-1β release, ex vivo whole blood	human, whole blood	oral, 100 mg single dose, 24 h, with: LPS and ATP		inhibition	> 90%
O=c1c(OCc2ccccc2)c(-c2ccc(Cl)cc2)oc2ccccc12			diabetic rat	7.5 mg/kg, 28 days, p-nitrophenyl β-glucoside induced		serum LDL cholesterol	118 ± 3.85 mg/dL
CCCC[C@H](NC(=O)[C@@H](NC(=O)[C@H](CC(=O)O)NC(=O)[C@H](CCC(N)=O)NC(=O)[C@H](CC(C)C)NC(=O)[C@H](CC(C)C)NC(=O)[C@H](CCCN)NC(=O)[C@H](CCCNC(=N)N)NC(=O)[C@H](C)NC(=O)[C@H](CO)NC(=O)[C@H](CC(C)C)NC(=O)[C@H](CCC(N)=O)NC(=O)[C@H](CC)NC(=O)[C@H](CC(C)C)NC(=O)[C@@H](NC(=O)[C@H](CCCN)NC(=O)[C@H](CCCNC(=N)N)NC(=O)[C@H](Cc1ccc(O)cc1)NC(=O)[C@H](CO)NC(=O)[C@H](CCC(N)=O)NC(=O)[C@@H](NC(=O)[C@H](Cc1ccccc1)NC(=O)[C@@H](NC(=O)[C@H](C)NC(=O)[C@H](CC(=O)O)NC(=O)[C@@H](C)NC(=O)[C@H](Cc1ccc(O)cc1)NC)[C@@H](C)CC)[C@@H](C)O)C(C)C)[C@@H](C)CC)C(=O)N[C@@H](CC(=O)O)C(=O)N[C@@H](CCCNC(=N)N)C(=O)NC		GH release, ELISA	male rat, anaesthetised, serum	intravenous, 1 µg/kg, 5 min		serum GH level	642 ± 29.7 ng/mL
COc1cc(C(=O)OCCCN2CCCN(CCCOC(=O)c3cc(OC)c(OC)c(OCc4ccc([N+](=O)[O-])cc4)c3)CC2)cc(OC)c1OC			mouse, STZ diabetic neuropathy	sc, 3 x 30 mg/kg		neuropathic pain	decreased
CC(C)(O)c1ccc(N2Cc3c(ccnc3-c3ccc(F)cc3OCC(F)(F)F)C2=O)cc1			Gaucher disease mouse model, brain	30 mg/kg, single dose	relative to: vehicle	glucosylsphingosine level	80 ± 2%
CCCCCCCOC(=O)Cc1c(C)n(C(=O)c2ccc(Cl)cc2)c2ccc(OC)cc12			BALB/c mice, acetic acid writhing	intraperitoneal, 20 mg/kg, 20 min count		writhing count	13.7 ± 1.67
CCCC[C@@H]1NC(=O)[C@H](Cc2ccc(O)cc2)NC(=O)[C@@H]2CCCN2C(=O)[C@H](CC(=O)O)NC(=O)[C@H](C)NC(=O)[C@H](Cc2ccccc2)NC(=O)[C@@H]2CSCCC(=O)N3CN(CN(C3)C(=O)CCSC[C@@H](C(=O)N[C@@H](C)C(N)=O)NC1=O)C(=O)CCSC[C@H](NC(C)=O)C(=O)N[C@@H](CC(C)(C)C)C(=O)N1CCC[C@H]1C(=O)N[C@@H](CCC(=O)O)C(=O)N[C@H](CCCCNC(=O)CCc1cn(CCOCCOCCOCCN(CCOCCOCCOCCC(=O)N[C@H]3CSCCC(=O)N4CN5CN(C4)C(=O)CCSC[C@H](NC(=O)[C@@H](CC(=O)O)NC(=O)[C@H](Cc4cccc6ccccc46)NC(=O)[C@@H]4CCCN4C3=O)C(=O)N[C@@H](CCSC)C(=O)N[C@@H](CCCCNC(=N)N)C(=O)N[C@@H](CC(=O)O)C(=O)N[C@@H](Cc3c[nH]c4ccccc34)C(=O)N[C@@H](CO)C(=O)N[C@@H]([C@@H](C)O)C(=O)N3CCC[C@H]3C(=O)N3C[C@H](O)C[C@H]3C(=O)N[C@@H](Cc3c[nH]c4ccccc34)C(=O)N[C@H](C(N)=O)CSCCC5=O)CCOCCOCCOCCn3cc(CCC(=O)NCCCC[C@H]4NC(=O)[C@H](CCC(=O)O)NC(=O)[C@@H]5CCCN5C(=O)[C@H](CC(C)(C)C)NC(=O)[C@@H](NC(C)=O)CSCCC(=O)N5CN6CN(C5)C(=O)CCSC[C@H](NC(=O)[C@H](Cc5ccc(O)cc5)NC(=O)[C@@H]5CCCN5C4=O)C(=O)N[C@@H](Cc4ccccc4)C(=O)N[C@@H](C)C(=O)N[C@@H](CC(=O)O)C(=O)N4CCC[C@H]4C(=O)N[C@@H](Cc4ccc(O)cc4)C(=O)N[C@@H](CCCC)C(=O)N[C@H](C(=O)N[C@@H](C)C(N)=O)CSCCC6=O)nn3)nn1)C(=O)N1CCC[C@H]1C(=O)N[C@@H](Cc1ccc(O)cc1)C(=O)N2		NanoString	mouse, MC38-Nectin-4 syngeneic tumour, circulating white blood cells	5 mg/kg, 24 h		number of modulated transcripts	14
NS(=O)(=O)Nc1ncnc(OCCOc2ncc(Br)cn2)c1-c1ccc(Br)cc1		metabolite formation	female Sprague-Dawley rat, liver microsomes	450 mg/kg daily for 4 weeks		Vmax	345 ± 18 pmol/min/mg
COc1c2c(cc3oc(COC4OC(CO)C(O)C(O)C4O)cc(=O)c13)OC(C(C)(C)O)C2 (centres unmarked)		analgesia	mouse	oral, 4 mg/kg, 1 h		hot plate latency	11.5 ± 1.51 s
CCCC[C@H](NC(=O)[C@@H](NC(=O)[C@H](CC(=O)O)NC(=O)[C@H](CCC(N)=O)NC(=O)[C@H](CC(C)C)NC(=O)[C@H](CC(C)C)NC(=O)[C@H](CCCN)NC(=O)[C@H](CCCNC(=N)N)NC(=O)[C@H](C)NC(=O)[C@H](CO)NC(=O)[C@H](CC(C)C)NC(=O)[C@H](CCC(N)=O)NC(=O)[C@H](CC)NC(=O)[C@H](CC(C)C)NC(=O)[C@@H](NC(=O)[C@H](CCCN)NC(=O)[C@H](CCCNC(=N)N)NC(=O)[C@H](Cc1ccc(O)cc1)NC(=O)[C@H](CO)NC(=O)[C@H](CCC(N)=O)NC(=O)[C@@H](NC(=O)[C@H](Cc1ccccc1)NC(=O)[C@@H](NC(=O)[C@H](C)NC(=O)[C@H](CC(=O)O)NC(=O)[C@H](C)NC(=O)[C@H](Cc1ccc(O)cc1)NC)[C@@H](C)CC)[C@@H](C)O)C(C)C)[C@@H](C)CC)C(=O)N[C@@H](CC(=O)O)C(=O)NCCCCNC(=N)N		GH release, ELISA	male Sprague-Dawley rat, anaesthetised, serum	subcutaneous, 3 µg/kg, 15 min		serum GH level	305 ± 40 ng/mL
COc1ccc2c(c1)c(CC(=O)OCOC(C)=O)c(C)n2C(=O)c1ccc(Cl)cc1		acetic acid writhing test	BALB/c mouse	intraperitoneal, 10 mg/kg	relative to: negative control	analgesia	61.8% and 61.7%
CCOC(=O)CCC(NC(=O)C(NC(=O)c1c(C)nn(-c2cc[nH]c(=O)c2)c1C)C(C)C)C(=O)OCC (centres unmarked)		single-cell RNA sequencing	intratumoral CD45+ immune cells, C57BL/6 mice, B16-F10 tumour	dose not given, with: anti-PD-L1	relative to: enantiomer	CD8 T cell cluster share	increased
CCCC[C@H](NC(=O)[C@@H](NC(=O)[C@H](CC(=O)O)NC(=O)[C@H](CCC(N)=O)NC(=O)[C@H](CC(C)C)NC(=O)[C@H](CC(C)C)NC(=O)[C@H](CCCN)NC(=O)[C@H](CCCNC(=N)N)NC(=O)[C@H](C)NC(=O)[C@H](CO)NC(=O)[C@H](CC(C)C)NC(=O)[C@H](CCC(N)=O)NC(=O)[C@H](CC)NC(=O)[C@H](CC(C)C)NC(=O)[C@@H](NC(=O)[C@H](CCCN)NC(=O)[C@H](CCCNC(=N)N)NC(=O)[C@H](Cc1ccc(O)cc1)NC(=O)[C@H](CO)NC(=O)[C@H](CC(N)=O)NC(=O)[C@@H](NC(=O)[C@H](Cc1ccccc1)NC(=O)[C@@H](NC(=O)[C@H](C)NC(=O)[C@H](CC(=O)O)NC(=O)[C@@H](CC)NC(=O)CCc1ccc(O)cc1)[C@@H](C)CC)[C@@H](C)O)C(C)C)[C@@H](C)CC)C(=O)N[C@@H](CO)C(=O)N[C@@H](CCCNC(=N)N)C(=O)NCCCC(N)=O		GH release, ELISA	male rat, anaesthetised, serum	intravenous, 1 µg/kg, 5 min		serum GH level	832 ± 214 ng/mL
O=c1c(OCc2ccccc2)c(-c2cccc([N+](=O)[O-])c2)oc2ccccc12			diabetic rat	7.5 mg/kg, 28 days, p-nitrophenyl β-glucoside induced		serum HDL cholesterol	45 ± 1.94 mg/dL
